Results of several laboratories.
Each line is one published result; not all experiments were run side by side.
Cell line: HEL

Compound	observed	method	time	endpoint	result
CC(C)CNC(=O)[C@H](C)NC(=O)[C@@]1(Cc2ccccc2)CCN1C(=O)OCc1ccccc1	–	microscopic cell morphology	–	minimum cytotoxic concentration	> 100 µM
O=C1c2ccccc2C(=O)N1Cc1cn(-c2nc(O)c3ncn([C@H]4C[C@H](O)[C@@H](CO)O4)c3n2)nn1	cell morphology	–	–	minimum cytotoxic concentration	> 210 µM
C[C@H](NC(=O)[C@]1(Cc2ccccc2)CCN1C(=O)OCc1ccccc1)C(=O)NC(C)(C)C	–	microscopic cell morphology	–	minimum cytotoxic concentration	> 100 µM
Nc1nc(O)c2ncn(COC(CO)CO)c2n1	cell growth	–	3 days	CC50	≥ 445 µM
O=c1ccn(Cc2cccc3ccccc23)c(=O)n1CCCCCOc1ccc(Br)cc1	cell morphology	–	–	minimum cytotoxic concentration	> 100 µM
Nc1ncnc2c1ncn2CCOC(Cc1ccccc1)CP(=O)(O)O (centres unmarked)	cell growth or viability	–	72 h	CC50	247 µM
O=c1c2ccccc2n(CCCCCOc2ccc(Br)cc2)c(=O)n1Cc1cccc2ccccc12	cell morphology	–	–	minimum cytotoxic concentration	> 100 µM
OC[C@H]1O[C@@H](n2cnc3c(O)nc(-n4cc(-c5ccccc5)nn4)nc32)C[C@@H]1O	cell morphology	–	–	minimum cytotoxic concentration	> 250 µM
C[C@H](NC(=O)[C@H](Cc1ccccc1)NC(=O)OCc1ccccc1)C(=O)NC(C)(C)C	–	microscopic cell morphology	–	minimum cytotoxic concentration	> 100 µM
OCc1cn(-c2nc(O)c3ncn([C@H]4C[C@H](O)[C@@H](CO)O4)c3n2)nn1	cell morphology	–	–	minimum cytotoxic concentration	> 290 µM
C#C[C@@]1(O)[C@@H](CO)O[C@@H](n2cnc3c(N)ncnc32)[C@@H]1O	cell growth or viability	–	–	CC50	0.73 µM

A few entries again:
Compound	observed	method	time	endpoint	result
O=C1c2ccccc2C(=O)N1Cc1cn(-c2nc(O)c3ncn([C@H]4C[C@H](O)[C@@H](CO)O4)c3n2)nn1	cell morphology	–	–	minimum cytotoxic concentration	> 210 µM
